{"data": "Experimental data pooled from the literature", "note": "Parts stem from different laboratories: compare values within a part only.", "sequence of UniProt P53778 (whole entry, looked up)": "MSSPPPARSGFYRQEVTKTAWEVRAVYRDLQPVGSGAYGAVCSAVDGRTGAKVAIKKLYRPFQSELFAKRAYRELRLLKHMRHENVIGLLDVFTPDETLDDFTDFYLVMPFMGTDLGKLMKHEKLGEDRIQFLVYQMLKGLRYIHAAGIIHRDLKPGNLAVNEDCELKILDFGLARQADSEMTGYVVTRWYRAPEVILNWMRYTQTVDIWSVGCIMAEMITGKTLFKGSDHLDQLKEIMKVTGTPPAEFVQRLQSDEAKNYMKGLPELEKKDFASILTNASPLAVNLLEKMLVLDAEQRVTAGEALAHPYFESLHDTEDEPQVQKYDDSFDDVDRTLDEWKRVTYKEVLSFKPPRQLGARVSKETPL", "sequence of UniProt P49137 (whole entry, looked up)": "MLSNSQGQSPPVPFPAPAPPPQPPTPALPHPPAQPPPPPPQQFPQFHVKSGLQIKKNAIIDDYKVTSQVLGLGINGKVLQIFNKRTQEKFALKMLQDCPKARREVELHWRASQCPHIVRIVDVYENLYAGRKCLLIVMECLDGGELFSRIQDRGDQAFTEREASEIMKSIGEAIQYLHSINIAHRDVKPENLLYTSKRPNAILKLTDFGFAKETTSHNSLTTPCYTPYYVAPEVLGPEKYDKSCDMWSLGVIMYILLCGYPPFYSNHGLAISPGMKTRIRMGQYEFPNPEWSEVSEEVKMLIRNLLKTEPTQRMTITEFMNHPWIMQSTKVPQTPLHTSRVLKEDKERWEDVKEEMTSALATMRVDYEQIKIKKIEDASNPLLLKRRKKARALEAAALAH", "sequence of UniProt Q9BVS4 (whole entry, looked up)": "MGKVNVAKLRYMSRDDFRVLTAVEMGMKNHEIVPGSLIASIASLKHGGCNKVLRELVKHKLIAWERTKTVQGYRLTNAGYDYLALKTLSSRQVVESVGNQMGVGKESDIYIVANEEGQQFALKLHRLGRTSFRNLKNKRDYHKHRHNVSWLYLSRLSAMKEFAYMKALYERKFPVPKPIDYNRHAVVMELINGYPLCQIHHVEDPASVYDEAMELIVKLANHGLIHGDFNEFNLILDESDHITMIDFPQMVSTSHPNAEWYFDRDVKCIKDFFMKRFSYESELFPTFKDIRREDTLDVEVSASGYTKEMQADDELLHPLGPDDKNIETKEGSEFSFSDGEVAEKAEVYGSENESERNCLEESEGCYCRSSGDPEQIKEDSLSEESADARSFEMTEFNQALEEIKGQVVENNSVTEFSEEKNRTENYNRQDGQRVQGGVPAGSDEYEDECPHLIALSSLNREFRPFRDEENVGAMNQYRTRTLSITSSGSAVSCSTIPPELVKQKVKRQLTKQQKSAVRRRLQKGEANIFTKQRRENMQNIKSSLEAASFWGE", "sequence of UniProt P10721 (whole entry, unmodified, looked up)": "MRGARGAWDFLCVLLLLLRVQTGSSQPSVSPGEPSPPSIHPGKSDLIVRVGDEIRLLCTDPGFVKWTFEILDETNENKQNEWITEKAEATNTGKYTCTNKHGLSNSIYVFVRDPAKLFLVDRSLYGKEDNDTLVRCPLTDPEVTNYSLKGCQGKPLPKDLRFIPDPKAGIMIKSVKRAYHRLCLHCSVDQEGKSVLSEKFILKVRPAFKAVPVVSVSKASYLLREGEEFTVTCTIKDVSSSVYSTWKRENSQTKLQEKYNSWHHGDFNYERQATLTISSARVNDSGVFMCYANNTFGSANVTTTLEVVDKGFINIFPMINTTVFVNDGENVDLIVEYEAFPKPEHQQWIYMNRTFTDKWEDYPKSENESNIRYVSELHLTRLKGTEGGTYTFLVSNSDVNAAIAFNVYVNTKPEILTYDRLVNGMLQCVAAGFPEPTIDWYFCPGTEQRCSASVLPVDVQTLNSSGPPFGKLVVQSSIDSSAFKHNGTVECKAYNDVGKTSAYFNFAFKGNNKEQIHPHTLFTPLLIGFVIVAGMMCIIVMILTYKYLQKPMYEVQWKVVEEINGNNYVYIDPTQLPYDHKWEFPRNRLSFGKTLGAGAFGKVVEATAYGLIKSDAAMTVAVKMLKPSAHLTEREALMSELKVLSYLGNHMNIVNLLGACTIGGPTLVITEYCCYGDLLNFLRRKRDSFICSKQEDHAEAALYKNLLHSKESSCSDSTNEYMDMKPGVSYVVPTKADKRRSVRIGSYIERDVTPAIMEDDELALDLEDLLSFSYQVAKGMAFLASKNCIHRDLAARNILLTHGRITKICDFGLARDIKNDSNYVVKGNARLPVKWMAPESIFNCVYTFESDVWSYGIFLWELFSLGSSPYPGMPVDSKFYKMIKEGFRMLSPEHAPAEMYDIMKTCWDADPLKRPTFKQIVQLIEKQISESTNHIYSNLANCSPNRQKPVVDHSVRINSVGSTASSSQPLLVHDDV", "sequence of UniProt P45984 (whole entry, looked up)": "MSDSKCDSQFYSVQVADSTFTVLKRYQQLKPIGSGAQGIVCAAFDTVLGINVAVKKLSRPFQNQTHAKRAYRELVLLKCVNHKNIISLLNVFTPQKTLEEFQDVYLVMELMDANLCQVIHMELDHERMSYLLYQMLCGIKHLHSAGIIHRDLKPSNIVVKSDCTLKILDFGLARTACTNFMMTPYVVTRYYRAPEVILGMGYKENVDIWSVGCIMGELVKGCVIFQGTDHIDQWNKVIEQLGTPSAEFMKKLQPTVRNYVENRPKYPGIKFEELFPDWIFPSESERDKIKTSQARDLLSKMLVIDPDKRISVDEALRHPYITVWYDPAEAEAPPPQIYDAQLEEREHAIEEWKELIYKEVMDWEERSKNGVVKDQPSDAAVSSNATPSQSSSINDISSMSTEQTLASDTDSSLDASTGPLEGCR"}
{"data": "Study 1", "target": "Ephrin type-A receptor 8 (EPHA8, Homo sapiens, UniProt P29322)", "observed": "enzyme activity", "mode": "inhibitor", "concentration": "0.5 µM", "relative to": "control", "sequence of UniProt P29322 (whole entry, looked up)": "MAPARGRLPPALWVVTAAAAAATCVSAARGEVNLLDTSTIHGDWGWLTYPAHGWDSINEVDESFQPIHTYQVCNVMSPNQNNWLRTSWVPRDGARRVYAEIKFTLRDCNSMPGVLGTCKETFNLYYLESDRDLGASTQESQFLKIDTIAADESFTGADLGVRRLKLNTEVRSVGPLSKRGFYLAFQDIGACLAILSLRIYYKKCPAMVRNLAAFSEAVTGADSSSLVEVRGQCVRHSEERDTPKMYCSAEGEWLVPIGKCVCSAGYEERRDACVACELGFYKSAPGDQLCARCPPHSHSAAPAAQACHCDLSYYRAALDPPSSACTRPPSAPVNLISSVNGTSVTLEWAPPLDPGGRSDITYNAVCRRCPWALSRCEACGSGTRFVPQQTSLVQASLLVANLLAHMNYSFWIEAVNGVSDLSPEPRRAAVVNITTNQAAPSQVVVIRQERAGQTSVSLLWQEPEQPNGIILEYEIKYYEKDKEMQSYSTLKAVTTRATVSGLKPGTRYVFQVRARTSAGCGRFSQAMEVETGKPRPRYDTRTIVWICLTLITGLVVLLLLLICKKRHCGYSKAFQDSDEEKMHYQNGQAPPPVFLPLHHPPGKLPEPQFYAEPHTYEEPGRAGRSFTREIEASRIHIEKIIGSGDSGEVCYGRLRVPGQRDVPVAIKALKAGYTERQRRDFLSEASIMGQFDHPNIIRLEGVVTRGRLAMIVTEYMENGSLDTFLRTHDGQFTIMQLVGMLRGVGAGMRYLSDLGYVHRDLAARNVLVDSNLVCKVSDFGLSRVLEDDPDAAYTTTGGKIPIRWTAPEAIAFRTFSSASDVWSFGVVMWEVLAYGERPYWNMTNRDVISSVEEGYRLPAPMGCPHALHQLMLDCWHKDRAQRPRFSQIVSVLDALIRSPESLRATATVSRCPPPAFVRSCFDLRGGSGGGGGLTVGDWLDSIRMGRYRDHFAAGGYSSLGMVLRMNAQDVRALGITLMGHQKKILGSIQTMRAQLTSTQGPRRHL"}
{"SMILES": "NCCNc1ncc(C(N)=O)c(Nc2cccc(C(F)(F)F)c2)n1", "remaining activity [%]": 85.9}
{"SMILES": "Cc1nc(-c2ccccc2)c(-c2ccncc2)o1", "remaining activity [%]": 78.8}
{"SMILES": "O=C(CCCc1ccc(-c2ccccc2F)cc1)Nc1ccc(O)cc1", "remaining activity [%]": 114}
{"SMILES": "CNC(=O)c1cc(Oc2ccc(NC(=O)Nc3ccc(Cl)c(C(F)(F)F)c3)cc2)ccn1", "remaining activity [%]": 94.5}
{"SMILES": "CN(C)c1ccc(C=C2C(=O)Nc3ccccc32)cc1", "remaining activity [%]": 103}
{"SMILES": "O=C1NC(=O)C(c2cn(CCCn3ccnc3)c3ccccc23)=C1Nc1ccccc1", "remaining activity [%]": 104}
{"SMILES": "COc1cc2ncnc(Nc3ccc(Oc4ccccc4)cc3)c2cc1OC", "remaining activity [%]": 97.4}
{"SMILES": "O=C(O)c1ccc2c3c1cccc3c(=O)n1c3ccccc3nc21", "remaining activity [%]": 89.4}
{"SMILES": "COc1ccc(OC)c2c(=S)c3ccccc3[nH]c12", "remaining activity [%]": 93.8}
{"SMILES": "Oc1ccc(-c2nc(-c3ccncc3)c(-c3ccc(F)cc3)[nH]2)cc1", "remaining activity [%]": 93.6}
{"SMILES": "Nc1[nH]nc2nc3ccccc3nc12", "remaining activity [%]": 104}
{"SMILES": "Cc1cccc(-c2[nH]c(C(C)(C)C)nc2-c2ccc3c(c2)OCO3)n1", "remaining activity [%]": 89.9}
{"SMILES": "Nc1ncnc2n[nH]c(Nc3ccc(F)cc3)c12", "remaining activity [%]": 94}
{"SMILES": "COc1ccc(CNC(=O)Nc2ncc([N+](=O)[O-])s2)cc1", "remaining activity [%]": 109}
{"SMILES": "O=S(=O)(c1cccc2cnccc12)N1CCCNCC1", "remaining activity [%]": 106}
{"SMILES": "OCC(O)CCON=C1C(c2c(O)[nH]c3ccccc23)=Nc2ccccc21 (centres unmarked)", "remaining activity [%]": 91.9}
{"data": "Study 2", "SMILES": "CC(C)S(=O)(=O)c1ccc2nccc(Nc3ccc4sc(C5CCCC5)nc4c3)c2c1.Cl", "observed": "kinase activity", "mode": "inhibitor", "concentration": "1 µM"}
{"target": "PASK (Homo sapiens, UniProt Q96RG2)", "remaining activity [%]": 110}
{"target": "GRK2 (Homo sapiens, UniProt P25098)", "remaining activity [%]": 90}
{"target": "FLT3 (Homo sapiens, UniProt P36888)", "remaining activity [%]": 77}
{"target": "PRKCA (Homo sapiens, UniProt P17252)", "remaining activity [%]": 75}
{"target": "MAPKAPK2 (Homo sapiens, UniProt P49137)", "remaining activity [%]": 103}
{"target": "CIT (Homo sapiens, UniProt O14578)", "remaining activity [%]": 103}
{"target": "IRAK1 (Homo sapiens, UniProt P51617)", "remaining activity [%]": 94}
{"target": "DAPK2 (Homo sapiens, UniProt Q9UIK4)", "remaining activity [%]": 98}
{"target": "DAPK1 (Homo sapiens, UniProt P53355)", "remaining activity [%]": 111}
{"target": "PIM3 (Homo sapiens, UniProt Q86V86)", "remaining activity [%]": 98}
{"target": "ERBB4 (Homo sapiens, UniProt Q15303)", "remaining activity [%]": 78}
{"target": "MAPK12 (Homo sapiens, UniProt P53778)", "remaining activity [%]": 101}
{"target": "SIK2 (Homo sapiens, UniProt Q9H0K1)", "remaining activity [%]": 103}
{"data": "Study 3", "Structure (SMILES)": "C[C@H]1CC[C@H](n2c3cnccc3c3cnc(Nc4ccc5c(n4)CCN(C(=O)CO)C5)nc32)CC1", "observed": "cell-free assay", "concentration": "1 µM"}
{"target": "PLK1 (Homo sapiens, UniProt P53350)", "remaining signal [%]": 100}
{"target": "CDK11B (Homo sapiens, UniProt P21127)", "remaining signal [%]": 100}
{"target": "RET (Homo sapiens, UniProt P07949, V804M)", "remaining signal [%]": 51}
{"target": "MAPKAPK2 (Homo sapiens, UniProt P49137)", "remaining signal [%]": 100}
{"target": "PRPF4B (Homo sapiens, UniProt Q13523)", "remaining signal [%]": 91}
{"target": "RIOK3 (Homo sapiens, UniProt O14730)", "remaining signal [%]": 36}
{"target": "MATK (Homo sapiens, UniProt P42679)", "remaining signal [%]": 63}
{"target": "PRKCH (Homo sapiens, UniProt P24723)", "remaining signal [%]": 100}
{"target": "IRAK4 (Homo sapiens, UniProt Q9NWZ3)", "remaining signal [%]": 63}
{"target": "KIT (Homo sapiens, UniProt P10721, L576P)", "remaining signal [%]": 1.2}
{"target": "STK39 (Homo sapiens, UniProt Q9UEW8)", "remaining signal [%]": 73}
{"target": "RIOK2 (Homo sapiens, UniProt Q9BVS4)", "remaining signal [%]": 7.6}
{"target": "GRK7 (Homo sapiens, UniProt Q8WTQ7)", "remaining signal [%]": 91}
{"target": "FLT3 (Homo sapiens, UniProt P36888, D835H)", "remaining signal [%]": 2.9}
{"data": "Study 4", "Compound": "Cc1cc(-n2nc(Cc3cc(F)cc(C(F)(F)F)c3)nc2C)ccc1C(N)=O", "observed": "cell-free assay", "method": "competition with immobilised ligand", "concentration": "1 µM"}
{"target": "MINK1 (Homo sapiens, UniProt Q8N4C8)", "remaining binding": "93%"}
{"target": "MAPK7 (Homo sapiens, UniProt Q13164)", "remaining binding": "100%"}
{"target": "Tyrosine-protein kinase ABL1, phosphorylated (ABL1, Homo sapiens, UniProt P00519, T315I)", "remaining binding": "98%"}
{"target": "Non-receptor tyrosine-protein kinase TYK2, JH2 (TYK2, Homo sapiens, UniProt P29597)", "remaining binding": "100%"}
{"target": "MAPK9 (Homo sapiens, UniProt P45984)", "remaining binding": "81%"}
{"target": "TGFBR2 (Homo sapiens, UniProt P37173)", "remaining binding": "100%"}
{"target": "PHKG1 (Homo sapiens, UniProt Q16816)", "remaining binding": "98%"}
{"target": "MAP3K13 (Homo sapiens, UniProt O43283)", "remaining binding": "100%"}
{"target": "Tyrosine-protein kinase JAK2, JH1 (JAK2, Homo sapiens, UniProt O60674)", "remaining binding": "100%"}
{"target": "MAPK12 (Homo sapiens, UniProt P53778)", "remaining binding": "100%"}
{"target": "PAK6 (Homo sapiens, UniProt Q9NQU5)", "remaining binding": "100%"}
{"target": "MAP2K5 (Homo sapiens, UniProt Q13163)", "remaining binding": "100%"}
{"target": "PRKD2 (Homo sapiens, UniProt Q9BZL6)", "remaining binding": "94%"}
{"target": "Ribosomal protein S6 kinase alpha-1, C-terminal kinase domain (RPS6KA1, Homo sapiens, UniProt Q15418)", "remaining binding": "100%"}
{"target": "RIOK2 (Homo sapiens, UniProt Q9BVS4)", "remaining binding": "100%"}
{"target": "Tyrosine-protein kinase ABL1, non-phosphorylated (ABL1, Homo sapiens, UniProt P00519, Q252H)", "remaining binding": "94%"}
{"target": "STK26 (Homo sapiens, UniProt Q9P289)", "remaining binding": "100%"}
{"target": "CDK8 (Homo sapiens, UniProt P49336)", "remaining binding": "97%"}
{"target": "TLK1 (Homo sapiens, UniProt Q9UKI8)", "remaining binding": "93%"}
{"target": "RPS6KB1 (Homo sapiens, UniProt P23443)", "remaining binding": "100%"}
{"target": "EPHA6 (Homo sapiens, UniProt Q9UF33)", "remaining binding": "100%"}
{"target": "ITK (Homo sapiens, UniProt Q08881)", "remaining binding": "93%"}
{"target": "MAPK10 (Homo sapiens, UniProt P53779)", "remaining binding": "100%"}
{"target": "Ribosomal protein S6 kinase alpha-5, N-terminal kinase domain (RPS6KA5, Homo sapiens, UniProt O75582)", "remaining binding": "88%"}
{"target": "TSSK1B (Homo sapiens, UniProt Q9BXA7)", "remaining binding": "90%"}
{"note": "Excerpt of the above (study 1):"}
{"SMILES": "CNC(=O)c1cc(Oc2ccc(NC(=O)Nc3ccc(Cl)c(C(F)(F)F)c3)cc2)ccn1", "remaining activity [%]": 94.5}
{"SMILES": "O=C1NC(=O)C(c2cn(CCCn3ccnc3)c3ccccc23)=C1Nc1ccccc1", "remaining activity [%]": 104}
{"SMILES": "O=S(=O)(c1cccc2cnccc12)N1CCCNCC1", "remaining activity [%]": 106}
{"SMILES": "COc1ccc(OC)c2c(=S)c3ccccc3[nH]c12", "remaining activity [%]": 93.8}
{"SMILES": "CN(C)c1ccc(C=C2C(=O)Nc3ccccc32)cc1", "remaining activity [%]": 103}
{"SMILES": "OCC(O)CCON=C1C(c2c(O)[nH]c3ccccc23)=Nc2ccccc21 (centres unmarked)", "remaining activity [%]": 91.9}
{"SMILES": "O=C(CCCc1ccc(-c2ccccc2F)cc1)Nc1ccc(O)cc1", "remaining activity [%]": 114}
{"SMILES": "NCCNc1ncc(C(N)=O)c(Nc2cccc(C(F)(F)F)c2)n1", "remaining activity [%]": 85.9}
{"SMILES": "Cc1cccc(-c2[nH]c(C(C)(C)C)nc2-c2ccc3c(c2)OCO3)n1", "remaining activity [%]": 89.9}
{"SMILES": "Nc1[nH]nc2nc3ccccc3nc12", "remaining activity [%]": 104}
{"SMILES": "O=C(O)c1ccc2c3c1cccc3c(=O)n1c3ccccc3nc21", "remaining activity [%]": 89.4}
